Results of several laboratories.
Each numbered part is a random draw from the data of one study; scales do not carry over between parts.

Set 1 — technique: RNA Bind-n-Seq; molecule type: RNA; matrix: in vitro; concentration: 200 nM; setting: whole 134-nt RNA, ends assumed; together with: 150 mM LiCl; reference: input library; direction: higher = stronger binding; each molecule: 7-deaza-guanosine replaces G
Target: Ras GTPase-activating protein-binding protein 1, full length (G3BP1, Homo sapiens, UniProt Q13283)
UniProt Q13283, sequence (whole entry, looked up): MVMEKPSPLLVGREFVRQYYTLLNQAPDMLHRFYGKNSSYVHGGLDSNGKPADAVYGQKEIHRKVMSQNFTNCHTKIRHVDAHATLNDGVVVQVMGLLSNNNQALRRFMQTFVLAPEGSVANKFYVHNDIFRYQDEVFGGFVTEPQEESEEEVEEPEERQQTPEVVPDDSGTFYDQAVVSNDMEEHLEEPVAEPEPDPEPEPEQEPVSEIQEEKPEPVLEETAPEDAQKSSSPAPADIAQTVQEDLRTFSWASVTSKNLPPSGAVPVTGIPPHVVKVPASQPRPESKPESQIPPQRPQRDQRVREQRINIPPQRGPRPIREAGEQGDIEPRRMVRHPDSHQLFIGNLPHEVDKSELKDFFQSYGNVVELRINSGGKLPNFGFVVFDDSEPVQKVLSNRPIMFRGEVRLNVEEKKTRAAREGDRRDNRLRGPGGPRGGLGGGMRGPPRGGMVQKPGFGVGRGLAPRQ
All sequences stand within: GGGAGUUCUACAGUCCGACGAUC … UGGAAUUCUCGGGUGUCAAGG
Strand	log2 enrichment
ACCAUGCAGGUGGGCAUCUUUGGGAAGUGGGGCAAGGGGGGGAUAGGUAGGGGGGUAACACUUUGGGAACAGGUGGUCCCAGGUCGUUUC	0.393
UCCUCAAGUCCUGUGCUACACAUCGUAUGUACCGAAUCGGGGUGGUGGUGGAAAGUAUUAUGUUACGCCGUUCGGAUCUGCACUUCCAGC	-0.749
AGUCCUGUGCUACACAUCGUAUGUACCGAAUCGGGAAAAAAAGGGUUUUUGGGAGGGAAAGUAUUAUGUUACGCCGUUCGGAUCUGCACU	-1.16
CUCAAGUCCUGUGCUACACAUCGUAUGUACCGAAUCGGGGUGGGUGGGUGGGGAAAGUAUUAUGUUACGCCGUUCGGAUCUGCACUUCCA	-1.27
CCUCAAGUCCUGUGCUACACAUCGUAUGUACCGAAUCGGGUUGGUUGGGUUGGAAAGUAUUAUGUUACGCCGUUCGGAUCUGCACUUCCA	0.154
CCUGUGCUACACAUCGUAUGUACCGAAUCGGAAAAAAAGGGAAAAAAAGGAAAAAAAGGGGAAAGUAUUAUGUUACGCCGUUCGGAUCUG	0.0243
AAGUCCUGUGCUACACAUCGUAUGUACCGAAUCGGGUGGGUUUUUGGGAAAAAGGGAAAGUAUUAUGUUACGCCGUUCGGAUCUGCACUU	0.247
UAAUUUUAGAGGAGGAUCUGAUGGAUAUGGCAGUGGACGUGGAUUUGGGGAUGGCUAUAAUGGGUAUGGAGGAGGACCUGGAGGUGGCAA	-0.2

Set 2 — technique: RNA Bind-n-Seq; molecule type: RNA; matrix: in vitro; concentration: 365 nM; reference: no-protein control; direction: higher = stronger binding
Target: RNA binding protein fox-1 homolog 2, RRM domain, GST-SBP tag (RBFOX2, Homo sapiens, UniProt O43251-10, residues 100-194)
Setting: natural RNA segment, single round, ends assumed
All sequences stand within: GGGAGUUCUACAGUCCGACGAUC … UGGAAUUCUCGGGUGCCAA
Target sequence (chain): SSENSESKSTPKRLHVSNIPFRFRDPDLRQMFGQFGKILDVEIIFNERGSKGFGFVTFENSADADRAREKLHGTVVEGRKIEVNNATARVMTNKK
Strand	RBNS enrichment (R)
AUUUUUUUUGUACAUUUUGGCUGCAGUAUUGGUGGUAGAAUAUACUAUAAUAUGGAUCAUCUCUACUUCUGUAUUUAUUUAUUUAUUACUAGACCUCAACCACAGUCUUC	0.573
AAGUCACUUCCAGUGUUGGCUGUGUGACAGAAUCUUGUAUUUGGGCCAAGGUGUUUCCAUUUCUCAAUCAGUGCAGUGAUACAUGUACUCCAGAGGGACAGGGUGGACCC	0.415
GUUCUGCUCACCGAUAUUUGCCCGGCCCCUGGAAGAGGAAACCUUUCGAAAGCUAAUAUCCCAGAAGAGCGACAGACAGAGGAGGUGACUACAUGUAAGACAUAUGUUAC	0.379
UCAGGGGAGAAGGAGGCCACUGGAAAAUUAUUUCCCUAAGUGCAGGCUGUUGACUGCGUAUGCCAAAAAGGGACAGGAGGCAUGGGAUAGCAGGUCUGGUGACACAGCUA	1.7
CAUGCAGUAGCAUUGUAUAGCAACUAGUGCAUUUCAUACUGUAUUAAAUAUGGCACUGCUUCUAAGCCUCGUUCCAGUUAAGUUUCACAUGACAGUUAGCUCCUCUGACC	0.296
UGGCCCUGCCUUUACCAUAUCAGUGACAGAGAGAGGCUGCUUCAGGUCUGAGGCUAUCCCUCAGCCAUGCAUAAAGUCCAAGAGAACCAACUGGCUCCUGGUCUCUAGCC	0.476
CUGACAAAUUAUUGAUUAAUAAGAACUUGAAUUUCUGGAAGAUUCUUACUGUUAACCAAAUUUUGAGCAAGGAGUCUCAAAGGUAAUUCUGAACCAGAAUUACAUGUUAA	0.346
CUUUUAGUCUAUGGGAAUUACAGGGUUGCCGCUAAAAUAUUCACUUGUUCAUAUCGUGUCAGAGAUUUCCUCUUCUCUGGAGCUUAGGUGGCUCUUCACAAUCCAUAGGC	0.468

Set 3 — technique: universal PBM; molecule type: double-stranded DNA, one strand shown; matrix: in vitro; concentration: not given; direction: higher = stronger binding
Target: Sal-like protein 4, full length isoform B (SALL4, Homo sapiens, UniProt Q9UJQ4-2, residues 1-616)
Setting: 8-mer, flanks averaged, mean of replicates
Construct (chain): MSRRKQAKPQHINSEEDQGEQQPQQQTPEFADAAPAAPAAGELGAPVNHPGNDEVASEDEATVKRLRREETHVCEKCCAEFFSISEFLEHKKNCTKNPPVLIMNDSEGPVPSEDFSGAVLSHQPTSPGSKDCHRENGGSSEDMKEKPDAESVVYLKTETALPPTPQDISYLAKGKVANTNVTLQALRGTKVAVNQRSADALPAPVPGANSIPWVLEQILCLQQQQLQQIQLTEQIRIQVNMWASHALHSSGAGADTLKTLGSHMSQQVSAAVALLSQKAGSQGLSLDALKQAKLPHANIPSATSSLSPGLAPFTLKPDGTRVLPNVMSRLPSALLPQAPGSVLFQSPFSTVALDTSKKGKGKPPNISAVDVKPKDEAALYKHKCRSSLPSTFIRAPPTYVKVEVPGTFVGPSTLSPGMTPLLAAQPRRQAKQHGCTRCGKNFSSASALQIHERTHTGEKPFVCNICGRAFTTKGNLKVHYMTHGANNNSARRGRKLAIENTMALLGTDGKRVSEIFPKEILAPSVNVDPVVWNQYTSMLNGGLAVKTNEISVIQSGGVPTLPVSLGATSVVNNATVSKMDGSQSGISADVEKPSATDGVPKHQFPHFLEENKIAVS
Strand	E-score
CCTTGAAA	0.0733
GAGCCGGC	-0.24
GTATGGGA	-0.0684
CCTACCTC	-0.256
TAGACGAA	0.176
ATTGTGGA	0.169
ACGCGTCC	-0.206
TGAAAGCA	0.13
ATCATAAC	0.403
AGGACAAG	-0.0725
CGTAGTTC	-0.137
CAGCTGCG	-0.299
TCTCTGCA	-0.0871
CCAATCCA	-0.247
GGGTTCAC	-0.209
ACAGACGG	-0.176
AATCATCA	0.212

Set 4 — technique: protein-binding microarray; molecule type: double-stranded DNA, one strand shown; matrix: in vitro; concentration: 250 nM; setting: 60-bp whole probe; together with: salmon DNA 0.4 mg/ml; reference: random background probes; direction: higher = stronger binding; all sequences stand within: GCCTAGCAC … GTCTTGATTCGCTTGACGCTGCTG
Target: Interferon regulatory factor 7, full length, phosphomimetic (IRF7, Homo sapiens, UniProt Q92985, residues 1-503, S101K/S471D/S472D/S475D/S476D/S477D/S483D/S484D/S487D)
Residues (chain): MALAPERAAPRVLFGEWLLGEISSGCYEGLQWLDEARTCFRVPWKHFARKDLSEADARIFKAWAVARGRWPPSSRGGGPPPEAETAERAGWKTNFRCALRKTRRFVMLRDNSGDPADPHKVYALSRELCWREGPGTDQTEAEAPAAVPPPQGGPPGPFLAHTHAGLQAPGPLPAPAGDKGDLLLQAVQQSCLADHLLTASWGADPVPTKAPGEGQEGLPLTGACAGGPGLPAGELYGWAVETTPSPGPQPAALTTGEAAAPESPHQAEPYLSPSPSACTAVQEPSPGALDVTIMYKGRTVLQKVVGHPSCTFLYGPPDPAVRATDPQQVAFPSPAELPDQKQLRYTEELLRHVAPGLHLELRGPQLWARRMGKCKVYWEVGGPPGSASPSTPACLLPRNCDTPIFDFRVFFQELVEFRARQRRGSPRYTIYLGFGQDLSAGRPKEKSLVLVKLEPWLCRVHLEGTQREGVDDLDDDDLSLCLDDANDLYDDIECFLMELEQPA
Strand	log fluorescence [z-score]
TCATGTCTGTAGCTCATACTGTGCTAG	-0.0162
TTAGAACTGGAGACTGGATTAGTGCTA	-0.559
GACGGTTCCGCTTTCGGGACGTGCTAG	4.25
TTAGAACTGGGGACTGAATTAGTGCTA	-0.406
GACGGACTGGTTTTCCTGACGTGCTAG	-0.222
TTAGGATCCGGTTTCGGTTAGTGCTAG	9.54
TTAGGTATCCTAGTGCTTTAGTGCTAG	-0.354
TTAGATCTCAGACTGGATTTGTGCTAG	-0.204
GACGGATTGGACTTTCGGGACGTGCTA	-0.21
GAAGATCTCAGTATCGAGACGTGCTAG	0.177
TCAGTCCTCTCTCTATTACTGTGCTAG	0.231
GACGAACTGAGGACTGGAGACGTGCTA	-0.182
AGAGAGAGTGAGGAACAACAGTGCTAG	-0.569
TTAGGTATCGGGTTCGGTTAGTGCTAG	3.32
TTAAAACTGGGGACTGGATTAGTGCTA	-0.36
TTAGGACTGCTTCTACTTTAGTGCTAG	0.329
GCCGGTCTCGGTATCGGGACGTGCTAG	2.15
TTAGGCCTGGGGTATCGGTTAGTGCTA	0.258
TCAACTTTCTACTTCTCACTGTGCTAG	1.16

Excerpt of the above (set 2):
Strand	RBNS enrichment (R)
GUUCUGCUCACCGAUAUUUGCCCGGCCCCUGGAAGAGGAAACCUUUCGAAAGCUAAUAUCCCAGAAGAGCGACAGACAGAGGAGGUGACUACAUGUAAGACAUAUGUUAC	0.379
CUGACAAAUUAUUGAUUAAUAAGAACUUGAAUUUCUGGAAGAUUCUUACUGUUAACCAAAUUUUGAGCAAGGAGUCUCAAAGGUAAUUCUGAACCAGAAUUACAUGUUAA	0.346
UCAGGGGAGAAGGAGGCCACUGGAAAAUUAUUUCCCUAAGUGCAGGCUGUUGACUGCGUAUGCCAAAAAGGGACAGGAGGCAUGGGAUAGCAGGUCUGGUGACACAGCUA	1.7
CAUGCAGUAGCAUUGUAUAGCAACUAGUGCAUUUCAUACUGUAUUAAAUAUGGCACUGCUUCUAAGCCUCGUUCCAGUUAAGUUUCACAUGACAGUUAGCUCCUCUGACC	0.296
CUUUUAGUCUAUGGGAAUUACAGGGUUGCCGCUAAAAUAUUCACUUGUUCAUAUCGUGUCAGAGAUUUCCUCUUCUCUGGAGCUUAGGUGGCUCUUCACAAUCCAUAGGC	0.468
AAGUCACUUCCAGUGUUGGCUGUGUGACAGAAUCUUGUAUUUGGGCCAAGGUGUUUCCAUUUCUCAAUCAGUGCAGUGAUACAUGUACUCCAGAGGGACAGGGUGGACCC	0.415
